Published values of several laboratories.
Lines come from different studies, so protocols differ. Numbers after ± are the reported error.
INPP5D Ptase-C2 domains: Phosphatidylinositol 3,4,5-trisphosphate 5-phosphatase 1, Ptase-C2 domains (INPP5D, Homo sapiens, UniProt Q92835)
FGFR3: Fibroblast growth factor receptor 3 (FGFR3, Homo sapiens, UniProt P22607)
Genome polyprotein NS3 helicase domain: Genome polyprotein, NS3 helicase domain (Hepatitis C virus genotype 1b, UniProt Q9WMX2)
SRC SH3-SH2-kinase domain: Proto-oncogene tyrosine-protein kinase Src, SH3-SH2-kinase domain (SRC, Gallus gallus, UniProt P00523)
RAD52: DNA repair protein RAD52 homolog (RAD52, Homo sapiens, UniProt P43351)

`CC1OC(Oc2c(-c3ccc(O)cc3)oc3cc(O)cc(O)c3c2=O)C(OC(=O)C=Cc2ccc(O)cc2)C(O)C1OC(=O)C=Cc1ccc(O)cc1` (centres unmarked) gave an IC50 of greater than 10 µM (CCR6 (Homo sapiens, UniProt P51684); calcium flux, antagonist; 293FT GCaMP6 transfected).
With `CC[C@H](C)[C@H](NC(=O)[C@H](CO)NC(=O)[C@H](CCC(=O)O)NC(=O)[C@@H](N)CC(C)C)C(=O)N[C@@H](Cc1ccccc1)C(=O)N[C@@H](CCCNC(=N)N)C(=O)N[C@@H](CO)C(=O)N[C@@H](CC(C)C)C(=O)N[C@@H](CC(C)C)C(=O)N[C@@H](Cc1ccccc1)C(=O)N[C@@H](CCCNC(=N)N)C(=O)N[C@H](C(=O)N[C@@H](CCSC)C(=O)O)C(C)C` the IC50 was roughly 0.01 µM (N-formyl peptide receptor 2, deglycosylated (FPR2, Homo sapiens, UniProt P25090); binding; HEK293 glycosidase F treated; with: [3H]LXA4).
With `C[C@H](NC(=O)c1sccc1OCc1ccc(Cl)cc1)c1ccccc1` the IC50 was 49.6 µM (INPP5D Ptase-C2 domains; enzyme activity, inhibitor).
For `COc1ccccc1-c1ccc(-c2cn(C(=O)N3CCCCC3Cc3ccccc3)nn2)cc1` (centres unmarked), the IC50 was 0.06 µM (Diacylglycerol lipase-beta (Mus musculus, UniProt Q91WC9); enzyme activity, inhibitor).
`O=C1Nc2ccc(-c3ccc4cc(O)ccc4c3)cc2/C1=C/c1ccc(N2CCNCC2)cc1` has an IC50 of 0.12 µM (FGFR3; enzyme activity, inhibitor).
The IC50 of `CCOc1cncc(-c2ccc(NC(=O)C3(c4ccnc(NS(=O)(=O)C5CC5)n4)CCOCC3)nc2)n1` is reported as 1.33 µM (Ctps2 (Mus musculus, UniProt P70303); enzyme activity, inhibitor, mass spectrometry).
The IC50 of `O=C1/C=C/C(=O)N[C@@H](CC2CCCCC2)C(=O)N[C@@H](Cc2ccc(F)cc2)C(=O)N[C@@H](Cc2ccc([N+](=O)[O-])cc2)C(=O)NCCC[C@@H](C(=O)O)N1` is reported as 8.4 µM (HCK (Homo sapiens, UniProt P08631); enzyme activity, inhibitor, absorbance).
For `CC1=CC(C)=[N+]2C1=C(CCCC(=O)NCCCC[C@H](NC(=O)N[C@@H](CCC(=O)O)C(=O)O)C(=O)O)c1c(C)cc(C)n1[B-]2(F)F`, the IC50 was 0.188 µM (FOLH1 (Homo sapiens, UniProt Q04609); ligand displacement in cells, radioligand).
With `COc1ccc(S(=O)(=O)NCc2nc(-c3ccccc3)no2)cc1` the IC50 was 11 µM (Trypanothione synthetase (Trypanosoma brucei, UniProt Q586P2); enzyme activity, inhibitor).
The IC50 of `Cc1ccc2nc(-c3ccc4nc(-c5ccc6nc(-c7ccc(N)cc7)sc6c5)sc4c3)sc2c1S(=O)(=O)O` is reported as roughly 1 µM (Genome polyprotein NS3 helicase domain; DNA unwinding, inhibitor, molecular beacon helicase; with: DNA substrate).
`CC(=N)NCc1cccc(CN)c1` has an IC50 of 744 ± 52 µM (Nitric oxide synthase 3 (Rattus norvegicus, UniProt Q62600); cGMP accumulation; rat aortic rings; 25 min preincubation, with: acetylcholine 10 µM).
`Cc1ccc(C[C@@H]2NC(=O)[C@H](CC3CCCCC3)NC(=O)/C=C/C(=O)N[C@H](C(N)=O)CCCNC(=O)[C@H](Cc3ccc([N+](=O)[O-])cc3)NC2=O)cc1` gave an IC50 of 0.37 ± 0.04 µM (SRC SH3-SH2-kinase domain; enzyme activity, inhibitor, Z'-LYTE FRET; Src residues 83-533, with: 50 µM ATP).
The IC50 of `O=C(Cc1c(F)cccc1F)Nc1cc(OCc2ccc(Cl)cc2)ccn1` is reported as 31.9 µM (INPP5D Ptase-C2 domains; enzyme activity, inhibitor).
The IC50 of `CCCCn1c(NN)nc2ccc(C)cc2c1=O` is reported as 23.4 µM (Genome polyprotein, protease (Hepatitis C virus genotype 1b, UniProt O92972); enzyme activity, inhibitor, FRET).
The IC50 of `O=C(O)c1cc(S(=O)(=O)Nc2c(F)cccc2F)ccc1O` is reported as 28.9 ± 5.5 µM (DNA repair protein RAD52 homolog, with RPA and ssDNA (RAD52, Homo sapiens, UniProt P43351); inhibitor, FRET).
The IC50 of `Cc1ccc2oc(-c3c4c(N)n[nH]c(=O)c4nn3-c3ccc(NC(=O)/C=C/CN(C)C)cc3)c(C)c2c1` is reported as 0.0373 µM (FGFR3; enzyme activity, inhibitor, ELISA).
`NS(=O)(=O)c1ccc(-n2nc(C(F)(F)F)cc2-c2ccc(F)cc2F)cc1` gave an IC50 of 2.8 µM (Cyclooxygenase-2 (Canis lupus familiaris, UniProt Q8SPQ9); PGE2 formation, inhibitor; dog whole blood; 24 h, 37 °C, with: LPS).
`Nc1nc(-c2cccc(Br)c2)cs1` gave an IC50 of 151 µM (Capsid scaffolding protein, protease domain (Human herpesvirus 8 type P, UniProt Q2HRB6); protease activity, inhibitor; with: fluorogenic peptide substrate).
`CCN1CCC(N(C)C(=O)Cc2ccc(O)cc2Cl)C(C)C1` (centres unmarked) has an IC50 of 249 ± 9.5 µM (RAD52; DNA binding, inhibitor, FRET; 25 °C, with: Cy3-dT30-Cy5 1 nM).
With `COc1ccc(N2CCN(C(=O)ON3C(=O)C4CN(CC5CCN(Cc6ccccc6)CC5)CCN4C3=O)CC2)cc1` (centres unmarked) the IC50 was 1.26 µM (Palmitoyl-protein thioesterase 1 (Homo sapiens, UniProt P50897); enzyme activity, inhibitor).
The IC50 of `CC(C)(C)COCCCCCN1C[C@H](O)[C@@H](O)[C@H](O)[C@@H]1CO` is reported as 2.77 µM (Ugcg (Mus musculus, UniProt O88693); enzyme activity in cells, inhibitor, fluorescence).
`CN1CC[C@@H](C(=O)O)NC(=O)/C=C\C(=O)N[C@@H](CC2CCCCC2)C(=O)N[C@@H](Cc2ccc(F)cc2)C(=O)N[C@@H](CCCNC(=O)c2cnccn2)C1=O` gave an IC50 of no more than 0.004 µM (SRC SH3-SH2-kinase domain; enzyme activity, inhibitor, Z'-LYTE FRET; Src residues 83-533, with: 50 µM ATP).
For `CC(=O)Oc1cc(C)c(OC(C)=O)c2c1CC=C(CCC=C(C)C)C2`, the IC50 was greater than 100 µM (DNA topoisomerase IB (Leishmania donovani, UniProt A0A3Q8IHS4+Q8WQM6); DNA relaxation activity, inhibitor; with: supercoiled plasmid DNA).
`COc1cccc(Nc2c(C(N)=O)cnc3c(C)cc(-c4ccc5cnn(C)c5c4)cc23)c1` gave an IC50 of 8 ± 3.9 µM (cAMP phosphodiesterase B2 (Trypanosoma brucei, UniProt Q38F42); inhibitor).
The IC50 of `CCN(CC)CCCC[C@H](NC(=O)[C@@H](NC(=O)[C@H](C)NC(=O)[C@H](Cc1ccccc1)NC(=O)c1ccc(C(F)(F)F)cc1)C1CCCC1)C(=O)N[C@@H](CO)C(N)=O` is reported as 12 ± 2 µM (Chromobox protein homolog 8 (Homo sapiens, UniProt Q9HC52); binding, inhibitor, competitive fluorescence polarization; pH 8.0).
The IC50 of `C/C(=N\Nc1nc(C)cs1)c1ccc2c(c1)sc1nc(=O)c(C#N)cn12` is reported as 2.83 µM (DNA gyrase (gyrA/gyrB, Escherichia coli, UniProt P0AES4+P0AES6); enzyme activity, inhibitor).
The IC50 of `Cc1noc(C)c1N(C)S(=O)(=O)c1ccc(C(=O)O)cc1Br` is reported as 1240 ± 75 µM (RAD52; DNA binding, inhibitor, FRET; 25 °C, with: Cy3-dT30-Cy5 1 nM).
The IC50 of `CC(C)NCc1ccc(C[C@@H]2NC(=O)[C@@H](Cc3c[nH]c4ccccc34)NC(=O)[C@H](Cc3ccccc3)NC(=O)[C@@H](N)CSSC[C@@H](C(=O)N[C@H](C(N)=O)[C@@H](C)O)NC(=O)[C@H](Cc3ccc(O)c(I)c3)NC2=O)cc1` is reported as 0.889 µM (SSTR1 (Homo sapiens, UniProt P30872); ligand displacement, radioligand; cell membranes).
With `Cc1cc2occ(CC(=O)N3CCC(C(=O)NCc4ccccc4)CC3)c2cc1C` the IC50 was 12 ± 2.6 µM (Trypanothione synthetase (Trypanosoma brucei brucei, UniProt Q586P2); enzyme activity, BIOMOL Green phosphate release; 1 h preincubation).
`Cc1ccc2nc(-c3ccc(N=NNc4ccc(-c5nc6ccc(C)c(S(=O)(=O)O)c6s5)cc4)cc3)sc2c1S(=O)(=O)O` gave an IC50 of 7 ± 3 µM (Genome polyprotein NS3 helicase domain; protein-DNA complex formation, inhibitor; with: Cy5-dT15 tracer).
`CN(C1COC1)C(C)(C)/C=C(\C#N)C(=O)N1CCC[C@H]1Cn1nc(-c2ccc(Oc3ccccc3)cc2F)c2c(N)ncnc21` has an IC50 of greater than 3 µM (ITK (Homo sapiens, UniProt Q08881); enzyme activity, inhibitor).
For `C=CC(=O)N1CC=C(c2c(-c3ccc(Oc4cccc(C)n4)cc3)c3c(N)ncnc3n2C)C1`, the IC50 was 0.11 µM (FGFR3; Caliper mobility shift; 30 min preincubation, with: 100 µM ATP).
For `Cc1cc(S(=O)(=O)NCc2nn(-c3ccccc3)nc2C)c(C)s1`, the IC50 was 24 µM (Trypanothione synthetase (Trypanosoma brucei, UniProt Q586P2); enzyme activity, inhibitor).
`CC(C)(C)c1ccc(CSc2nc(-c3cccs3)cc(-c3ccc(Cl)cc3)c2C#N)cc1` gave an IC50 of greater than 100 µM (KAT2A (Homo sapiens, UniProt Q92830); enzyme activity, inhibitor, radiometric).
With `COc1ccc(/C=C/c2cc(O)cc(O)c2)cc1O` the IC50 was 7.9 ± 0.5 µM (XDH (Bos taurus, UniProt P80457); uric acid formation, inhibitor; pH 10.0, 25 °C, with: 200 µM xanthine).
With `Cc1cnc(Nc2ccc(C3CCN(C)CC3)c(F)c2)nc1Nc1ccc(Cl)c(NS(=O)(=O)C(C)(C)C)c1` the IC50 was 1.05 µM (ULK1 (Homo sapiens, UniProt O75385); enzyme activity, inhibitor).
`Cc1cc(C)c(CNC(=O)c2c(O)c(O)cc3c(O)c(-c4c(C)cc5c(C(=O)NCc6c(C)cc(C)cc6C)c(O)c(O)cc5c4O)c(C)cc23)c(C)c1` gave an IC50 of roughly 1 µM (Bcl-2-like protein 10 (Homo sapiens, UniProt Q9HD36); binding, inhibitor, fluorescence polarization; with: fluorescent BH3 Bid peptide).
`COC(=O)c1ccc(N2CCN(c3cc(C)nc(C)n3)CC2)cc1` has an IC50 of 44 µM (INPP5D Ptase-C2 domains; enzyme activity, inhibitor).
`COP(=O)(OC)OC[C@H]1OC(O)(COP(=O)(O)O)[C@@H](O)[C@@H]1O` (some centres unmarked) has an IC50 of 1230 µM (Phosphoglycerate mutase 1 (Homo sapiens, UniProt P18669); enzyme activity, inhibitor).
With `Cc1ccccc1-c1cc(N2CCN(CCCN3C(=O)C=CC3=O)CC2)ccc1N(C)C(=O)C(C)(C)c1cc(C(F)(F)F)cc(C(F)(F)F)c1` the IC50 was 0.191 µM (TACR1 (Homo sapiens, UniProt P25103); nuclear ERK activity, antagonist, FRET biosensor; HEK293T; 30 to 90 min preincubation, with: substance P 10 nM).
With `C=CC(=O)N1CCN(c2nc(OC[C@@H]3CCCN3C)nc3c2CCN(c2cccc4cccc(C)c24)C3)C[C@@H]1CC#N` the IC50 was roughly 0.6 µM (GTPase KRas (KRAS, Homo sapiens, UniProt P01116); target engagement in cells, BRET).
`COc1cc(OC)cc(C(O)c2c[nH]c3ncc(C(F)(F)F)cc23)c1` (centres unmarked) has an IC50 of 0.32 µM (FGFR3; enzyme activity, inhibitor).
The IC50 of `COC(=O)C[C@H](NC(=O)[C@H](C)NC(=O)[C@@H](NC(=O)OCc1ccccc1)C(C)C)C(=O)CF` is reported as 0.002 µM (Caspase-8 (CASP8, Homo sapiens, UniProt Q14790); enzyme activity, inhibitor, fluorescence).
With `Cc1cn(-c2cc(NC(=O)c3ccc(C)c(Nc4nccc(-c5cccnc5)n4)c3)cc(C(F)(F)F)c2)cn1` the IC50 was greater than 10 µM (Proto-oncogene tyrosine-protein kinase Src, autophosphorylated (SRC, Gallus gallus, UniProt P00523, Y527F); photo-crosslinking probe binding, competition with HT-1; mammalian cell lysate; activated kinase).

Some of these lines once more:
With `C=CC(=O)N1CCN(c2nc(OC[C@@H]3CCCN3C)nc3c2CCN(c2cccc4cccc(C)c24)C3)C[C@@H]1CC#N` the IC50 was roughly 0.6 µM (GTPase KRas (KRAS, Homo sapiens, UniProt P01116); target engagement in cells, BRET).
The IC50 of `Cc1ccc2nc(-c3ccc4nc(-c5ccc6nc(-c7ccc(N)cc7)sc6c5)sc4c3)sc2c1S(=O)(=O)O` is reported as roughly 1 µM (Genome polyprotein NS3 helicase domain; DNA unwinding, inhibitor, molecular beacon helicase; with: DNA substrate).
For `CC(=O)Oc1cc(C)c(OC(C)=O)c2c1CC=C(CCC=C(C)C)C2`, the IC50 was greater than 100 µM (DNA topoisomerase IB (Leishmania donovani, UniProt A0A3Q8IHS4+Q8WQM6); DNA relaxation activity, inhibitor; with: supercoiled plasmid DNA).
The IC50 of `O=C(Cc1c(F)cccc1F)Nc1cc(OCc2ccc(Cl)cc2)ccn1` is reported as 31.9 µM (INPP5D Ptase-C2 domains; enzyme activity, inhibitor).
`COc1cccc(Nc2c(C(N)=O)cnc3c(C)cc(-c4ccc5cnn(C)c5c4)cc23)c1` gave an IC50 of 8 ± 3.9 µM (cAMP phosphodiesterase B2 (Trypanosoma brucei, UniProt Q38F42); inhibitor).
The IC50 of `COC(=O)C[C@H](NC(=O)[C@H](C)NC(=O)[C@@H](NC(=O)OCc1ccccc1)C(C)C)C(=O)CF` is reported as 0.002 µM (Caspase-8 (CASP8, Homo sapiens, UniProt Q14790); enzyme activity, inhibitor, fluorescence).
`COC(=O)c1ccc(N2CCN(c3cc(C)nc(C)n3)CC2)cc1` has an IC50 of 44 µM (INPP5D Ptase-C2 domains; enzyme activity, inhibitor).
